Measurements pooled from the literature.
Each numbered part is a random draw from the data of one study; scales do not carry over between parts.
Chain of UniProt P53350 (whole entry, looked up): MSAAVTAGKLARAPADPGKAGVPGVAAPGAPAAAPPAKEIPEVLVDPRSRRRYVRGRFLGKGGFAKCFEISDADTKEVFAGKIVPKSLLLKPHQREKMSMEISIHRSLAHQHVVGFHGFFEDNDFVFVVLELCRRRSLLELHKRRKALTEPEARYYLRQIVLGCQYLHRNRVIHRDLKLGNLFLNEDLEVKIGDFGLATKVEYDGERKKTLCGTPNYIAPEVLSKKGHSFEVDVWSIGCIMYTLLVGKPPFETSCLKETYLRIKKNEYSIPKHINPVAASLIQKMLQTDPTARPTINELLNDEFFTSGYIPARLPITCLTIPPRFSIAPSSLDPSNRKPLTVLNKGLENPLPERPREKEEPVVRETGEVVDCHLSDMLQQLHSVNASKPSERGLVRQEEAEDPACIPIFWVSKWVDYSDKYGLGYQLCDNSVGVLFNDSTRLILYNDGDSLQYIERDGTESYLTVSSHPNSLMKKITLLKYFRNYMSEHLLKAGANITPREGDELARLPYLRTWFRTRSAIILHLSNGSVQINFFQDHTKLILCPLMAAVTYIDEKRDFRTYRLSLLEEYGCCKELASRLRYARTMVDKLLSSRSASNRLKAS
Chain of UniProt Q5XXA6 (whole entry, unmodified, looked up): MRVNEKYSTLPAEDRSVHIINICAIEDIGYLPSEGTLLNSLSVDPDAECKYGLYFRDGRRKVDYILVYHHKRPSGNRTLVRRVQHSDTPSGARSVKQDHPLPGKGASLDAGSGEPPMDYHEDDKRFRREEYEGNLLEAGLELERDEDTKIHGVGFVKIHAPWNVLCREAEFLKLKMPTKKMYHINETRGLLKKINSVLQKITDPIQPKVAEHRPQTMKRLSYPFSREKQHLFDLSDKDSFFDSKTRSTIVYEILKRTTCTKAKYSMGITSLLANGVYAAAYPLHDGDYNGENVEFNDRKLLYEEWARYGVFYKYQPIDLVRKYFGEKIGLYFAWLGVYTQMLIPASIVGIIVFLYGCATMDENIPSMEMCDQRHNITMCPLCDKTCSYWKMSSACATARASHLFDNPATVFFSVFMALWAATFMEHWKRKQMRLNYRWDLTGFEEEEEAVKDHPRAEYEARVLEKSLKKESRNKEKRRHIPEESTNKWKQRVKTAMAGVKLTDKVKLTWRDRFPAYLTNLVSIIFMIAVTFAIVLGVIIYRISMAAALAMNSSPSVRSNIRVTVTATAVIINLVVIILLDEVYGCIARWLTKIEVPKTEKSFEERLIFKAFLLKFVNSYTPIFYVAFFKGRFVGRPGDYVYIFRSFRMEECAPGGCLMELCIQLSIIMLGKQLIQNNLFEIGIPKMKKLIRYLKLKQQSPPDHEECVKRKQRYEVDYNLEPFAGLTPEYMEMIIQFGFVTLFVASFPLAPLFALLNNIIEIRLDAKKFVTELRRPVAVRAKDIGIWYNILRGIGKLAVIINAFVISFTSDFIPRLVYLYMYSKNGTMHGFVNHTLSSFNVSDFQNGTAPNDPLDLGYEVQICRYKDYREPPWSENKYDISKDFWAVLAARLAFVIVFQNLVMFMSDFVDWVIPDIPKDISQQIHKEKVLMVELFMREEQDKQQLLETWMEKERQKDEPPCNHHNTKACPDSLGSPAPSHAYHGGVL
Chain of UniProt O15111 (whole entry, looked up): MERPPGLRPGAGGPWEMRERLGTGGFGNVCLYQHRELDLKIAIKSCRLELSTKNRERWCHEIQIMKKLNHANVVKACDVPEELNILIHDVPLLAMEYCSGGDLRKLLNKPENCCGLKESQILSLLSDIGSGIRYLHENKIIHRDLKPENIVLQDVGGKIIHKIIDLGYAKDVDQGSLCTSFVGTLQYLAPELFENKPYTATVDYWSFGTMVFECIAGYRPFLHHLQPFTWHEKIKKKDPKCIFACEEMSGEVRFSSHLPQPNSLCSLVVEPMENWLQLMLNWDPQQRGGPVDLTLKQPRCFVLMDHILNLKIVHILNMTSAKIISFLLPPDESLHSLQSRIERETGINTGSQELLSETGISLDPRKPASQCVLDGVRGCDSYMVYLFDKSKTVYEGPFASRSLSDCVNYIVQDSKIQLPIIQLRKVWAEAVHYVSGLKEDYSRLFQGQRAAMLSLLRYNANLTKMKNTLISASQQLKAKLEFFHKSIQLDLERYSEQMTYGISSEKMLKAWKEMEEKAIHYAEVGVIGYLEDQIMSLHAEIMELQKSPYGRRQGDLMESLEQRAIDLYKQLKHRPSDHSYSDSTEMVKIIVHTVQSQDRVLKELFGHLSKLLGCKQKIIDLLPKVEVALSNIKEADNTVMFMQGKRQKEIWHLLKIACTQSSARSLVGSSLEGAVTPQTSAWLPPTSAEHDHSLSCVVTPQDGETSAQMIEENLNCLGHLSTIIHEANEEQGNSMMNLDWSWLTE
Chain of UniProt Q14680 (whole entry, looked up): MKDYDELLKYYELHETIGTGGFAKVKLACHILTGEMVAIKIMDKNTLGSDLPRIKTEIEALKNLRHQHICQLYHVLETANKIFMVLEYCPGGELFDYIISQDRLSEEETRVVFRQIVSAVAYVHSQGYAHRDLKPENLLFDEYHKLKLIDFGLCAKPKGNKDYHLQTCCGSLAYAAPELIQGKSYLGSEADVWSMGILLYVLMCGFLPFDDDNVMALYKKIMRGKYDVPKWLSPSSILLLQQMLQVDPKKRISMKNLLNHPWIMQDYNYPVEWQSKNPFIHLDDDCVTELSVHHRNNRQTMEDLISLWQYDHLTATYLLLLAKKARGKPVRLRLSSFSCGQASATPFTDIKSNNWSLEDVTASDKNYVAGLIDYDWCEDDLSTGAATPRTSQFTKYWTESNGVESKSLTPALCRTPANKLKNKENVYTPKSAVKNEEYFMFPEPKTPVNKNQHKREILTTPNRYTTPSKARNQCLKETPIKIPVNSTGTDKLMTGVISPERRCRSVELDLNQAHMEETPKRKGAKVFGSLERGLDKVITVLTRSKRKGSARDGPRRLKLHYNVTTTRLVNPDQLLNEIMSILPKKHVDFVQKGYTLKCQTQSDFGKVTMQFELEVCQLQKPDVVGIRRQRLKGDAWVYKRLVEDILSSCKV
Chain of UniProt Q15375 (whole entry, looked up): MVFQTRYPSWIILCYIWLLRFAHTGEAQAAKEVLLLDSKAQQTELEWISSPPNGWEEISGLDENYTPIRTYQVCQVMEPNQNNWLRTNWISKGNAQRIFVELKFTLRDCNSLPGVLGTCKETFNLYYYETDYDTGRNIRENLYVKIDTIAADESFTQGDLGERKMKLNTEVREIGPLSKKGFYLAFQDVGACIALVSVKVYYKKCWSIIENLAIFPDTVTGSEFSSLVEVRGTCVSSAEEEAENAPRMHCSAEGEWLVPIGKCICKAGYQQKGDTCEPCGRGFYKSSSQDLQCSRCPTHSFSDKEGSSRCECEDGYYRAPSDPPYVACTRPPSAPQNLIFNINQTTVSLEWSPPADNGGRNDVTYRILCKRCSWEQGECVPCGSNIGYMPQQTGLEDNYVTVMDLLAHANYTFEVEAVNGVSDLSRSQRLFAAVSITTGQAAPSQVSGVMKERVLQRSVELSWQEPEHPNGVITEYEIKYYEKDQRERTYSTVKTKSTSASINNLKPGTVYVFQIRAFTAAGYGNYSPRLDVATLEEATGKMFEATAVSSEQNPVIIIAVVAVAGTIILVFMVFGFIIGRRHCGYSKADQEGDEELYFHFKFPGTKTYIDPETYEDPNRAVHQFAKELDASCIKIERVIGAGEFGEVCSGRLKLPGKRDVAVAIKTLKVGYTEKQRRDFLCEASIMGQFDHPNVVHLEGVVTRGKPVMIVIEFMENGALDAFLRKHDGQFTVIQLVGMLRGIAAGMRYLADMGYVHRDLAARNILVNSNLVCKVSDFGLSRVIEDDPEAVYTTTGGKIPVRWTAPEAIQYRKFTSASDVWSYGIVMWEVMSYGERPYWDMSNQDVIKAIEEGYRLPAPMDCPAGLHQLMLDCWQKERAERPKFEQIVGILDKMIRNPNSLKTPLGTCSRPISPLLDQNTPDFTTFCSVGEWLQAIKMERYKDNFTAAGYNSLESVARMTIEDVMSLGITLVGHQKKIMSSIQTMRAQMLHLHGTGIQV
Chain of UniProt Q02750 (whole entry, looked up): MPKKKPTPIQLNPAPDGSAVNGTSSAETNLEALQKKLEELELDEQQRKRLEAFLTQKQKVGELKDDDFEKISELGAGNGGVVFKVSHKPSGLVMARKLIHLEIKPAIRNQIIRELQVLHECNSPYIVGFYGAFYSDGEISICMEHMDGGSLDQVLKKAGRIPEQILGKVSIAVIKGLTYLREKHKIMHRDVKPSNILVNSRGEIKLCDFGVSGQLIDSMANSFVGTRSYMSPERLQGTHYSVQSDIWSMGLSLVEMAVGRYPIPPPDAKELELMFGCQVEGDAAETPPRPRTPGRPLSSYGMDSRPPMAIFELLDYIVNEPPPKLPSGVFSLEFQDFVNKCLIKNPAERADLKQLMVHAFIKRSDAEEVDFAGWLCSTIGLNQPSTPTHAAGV

Series 1
SMILES: CO[C@H]1CC[C@H](CNc2ccc(S(=O)(=O)NC(=O)c3ccc(N4CCN(CC5=C(c6ccc(Cl)cc6)CC(C)(C)CC5)CC4)cc3Oc3cnc4[nH]ccc4c3)cc2[N+](=O)[O-])CC1
Tested at: 1 µM
Quantity: remaining binding
Ephrin type-A receptor 7 (EPHA7, Homo sapiens, UniProt Q15375); cell-free assay, competition with immobilised ligand: 87%
Serine/threonine-protein kinase/endoribonuclease IRE1 (ERN1, Homo sapiens, UniProt O75460); cell-free assay, competition with immobilised ligand: 89%
Serine/threonine-protein kinase PLK1 (PLK1, Homo sapiens, UniProt P53350); cell-free assay, competition with immobilised ligand: 83%
Dual specificity tyrosine-phosphorylation-regulated kinase 1B (DYRK1B, Homo sapiens, UniProt Q9Y463); cell-free assay, competition with immobilised ligand: 71%
AP2-associated protein kinase 1 (AAK1, Homo sapiens, UniProt Q2M2I8); binding: 78%
Serine/threonine-protein kinase MRCK beta (CDC42BPB, Homo sapiens, UniProt Q9Y5S2); cell-free assay, competition with immobilised ligand: 100%
Phosphatidylinositol 4,5-bisphosphate 3-kinase catalytic subunit alpha isoform (PIK3CA, Homo sapiens, UniProt P42336, E542K); cell-free assay, competition with immobilised ligand: 94%
Serine/threonine-protein kinase SIK2 (SIK2, Homo sapiens, UniProt Q9H0K1); cell-free assay, competition with immobilised ligand: 100%
Maternal embryonic leucine zipper kinase (MELK, Homo sapiens, UniProt Q14680); cell-free assay, competition with immobilised ligand: 67%
Mitogen-activated protein kinase kinase kinase 3 (MAP3K3, Homo sapiens, UniProt Q99759); cell-free assay, competition with immobilised ligand: 83%
Casein kinase I isoform alpha-like (CSNK1A1L, Homo sapiens, UniProt Q8N752); cell-free assay, competition with immobilised ligand: 85%
Cyclin-dependent kinase 13 (CDK13, Homo sapiens, UniProt Q14004); cell-free assay, competition with immobilised ligand: 100%
Inhibitor of nuclear factor kappa-B kinase subunit alpha (CHUK, Homo sapiens, UniProt O15111); cell-free assay, competition with immobilised ligand: 100%
Serine/threonine-protein kinase Nek5 (NEK5, Homo sapiens, UniProt Q6P3R8); cell-free assay, competition with immobilised ligand: 88%
Dual specificity mitogen-activated protein kinase kinase 1 (MAP2K1, Homo sapiens, UniProt Q02750); cell-free assay, competition with immobilised ligand: 99%

Series 2
Target: Rhodopsin kinase GRK7 (GRK7, Homo sapiens, UniProt Q8WTQ7)
Chain of UniProt Q8WTQ7 (whole entry, looked up): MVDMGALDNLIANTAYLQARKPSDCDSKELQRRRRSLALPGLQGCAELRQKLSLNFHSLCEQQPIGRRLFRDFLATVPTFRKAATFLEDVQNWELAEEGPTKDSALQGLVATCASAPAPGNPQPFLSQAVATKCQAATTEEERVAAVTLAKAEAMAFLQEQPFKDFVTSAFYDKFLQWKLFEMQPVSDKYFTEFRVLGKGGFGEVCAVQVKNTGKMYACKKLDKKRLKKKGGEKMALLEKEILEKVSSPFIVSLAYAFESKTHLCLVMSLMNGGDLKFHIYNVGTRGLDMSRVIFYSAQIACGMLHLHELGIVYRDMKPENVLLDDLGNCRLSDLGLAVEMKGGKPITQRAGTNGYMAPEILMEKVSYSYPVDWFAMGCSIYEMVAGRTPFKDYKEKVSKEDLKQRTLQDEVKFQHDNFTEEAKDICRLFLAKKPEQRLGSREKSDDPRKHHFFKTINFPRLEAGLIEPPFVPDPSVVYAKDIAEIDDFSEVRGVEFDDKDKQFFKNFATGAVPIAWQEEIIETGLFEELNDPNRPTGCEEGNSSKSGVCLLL
Read-out: enzyme activity
Mode: inhibitor
Tested at: 0.5 µM
Reference: control
Quantity: remaining activity
O=C1NC(=O)C(c2cn(CCCn3ccnc3)c3ccccc23)=C1Nc1ccccc1: 86.3%
CO[C@H]1C[C@@H]2CC[C@@H](C)[C@@](O)(O2)C(=O)C(=O)N2CCCC[C@H]2C(=O)O[C@H]([C@H](C)C[C@@H]2CC[C@@H](O)[C@H](OC)C2)CC(=O)[C@H](C)/C=C(\C)[C@@H](O)[C@@H](OC)C(=O)[C@H](C)C[C@H](C)/C=C/C=C/C=C/1C: 98%
Cn1c2ccccc2c2c3c(c4c5ccccc5n(CCC#N)c4c21)CNC3=O: 37.9%
CNC(=O)c1cc(Oc2ccc(NC(=O)Nc3ccc(Cl)c(C(F)(F)F)c3)cc2)ccn1: 97.3%
CCOC(=O)c1c(C)[nH]c(/C=C2\C(=O)Nc3ccccc32)c1C: 86.3%
COc1ccc(OC)c2c(=S)c3ccccc3[nH]c12: 102%
O=C(O)c1ccc2c3c1cccc3c(=O)n1c3ccccc3nc21: 102%
O=C(Nc1cccc(Nc2cc(Nc3cccc(C(F)(F)F)c3)ncn2)c1)C1CC1: 99%
COc1ccc(C(=O)Nc2sc3c(c2C(N)=O)CCCC3)cc1OC: 95.5%
O=S(=O)(c1cccc2cnccc12)N1CCCNCC1: 114%
Cc1ccc(Nc2nccc(N(C)c3ccc4c(C)n(C)nc4c3)n2)cc1S(N)(=O)=O: 96.5%
NCCNc1ncc(C(N)=O)c(Nc2cccc(C(F)(F)F)c2)n1: 77.6%
Cc1cccc(-c2[nH]c(C(C)(C)C)nc2-c2ccc3c(c2)OCO3)n1: 103%
COc1ccc(CNC(=O)Nc2ncc([N+](=O)[O-])s2)cc1: 103%
Cn1sc(=O)n(Cc2ccccc2)c1=O: 112%
OCC(O)CCON=C1C(c2c(O)[nH]c3ccccc23)=Nc2ccccc21 (stereo not shown): 70.3%
CN(C)c1ccc(C=C2C(=O)Nc3ccccc32)cc1: 100%

Series 3
Cell line: mouse MPNST tumor cells
Technique: high-content nuclear imaging
Refers to: cell number
Tested at: 10 µM
Time: 12 h
Setting: mean of 2 replicates
Reference: plate mean
Direction: higher = more cells
Quantity: nuclei count
CC(C)(C)c1cc(C(=O)C(C#N)=NNc2cccc(Cl)c2)no1: 2.62 z-score
Cc1c(C(=O)NCc2cccnc2)nn(-c2ccc(Cl)cc2Cl)c1-c1ccc(Cl)cc1: -0.855 z-score
Cc1nc(=O)c2cc(CN(C)c3ccc(C(=O)N[C@@H](CCC(=O)O)C(=O)O)s3)ccc2[nH]1: -2.64 z-score
NC[C@H]1O[C@H](O[C@H]2[C@H](O[C@@H]3O[C@H](CO)[C@@H](O)[C@H]3O)[C@@H](O)[C@H](N)C[C@@H]2N)[C@H](N)[C@@H](O)[C@@H]1O: 0.195 z-score
Cc1cc(=O)n(C)c2cc(N3C(=O)CC[C@@H](NS(=O)(=O)CC(C)C)[C@@H]3c3ccc(Cl)cc3)ccc12: 1.52 z-score
Cc1cc(/C(=C/Nc2ccc(Cl)cc2)C(=O)Nc2ccc(Cl)cc2)on1: 1.86 z-score
O=C(c1ccc(F)cc1)C1CCN(CCCCc2ccccc2)CC1: 0.356 z-score

Other studies, line by line
C=CCc1ccc(O)c(-c2cc(CC=C)ccc2O)c1 — remaining current (Anoctamin-1 (ANO1, Homo sapiens, UniProt Q5XXA6, del476-501); chloride current, inhibitor, whole-cell voltage clamp; 10 µM, wild type, together with: 300 nM Ca2+; reference: maximum): ~70%

A few entries again (series 2):
Cn1c2ccccc2c2c3c(c4c5ccccc5n(CCC#N)c4c21)CNC3=O: 37.9%
O=C1NC(=O)C(c2cn(CCCn3ccnc3)c3ccccc23)=C1Nc1ccccc1: 86.3%
COc1ccc(OC)c2c(=S)c3ccccc3[nH]c12: 102%
CN(C)c1ccc(C=C2C(=O)Nc3ccccc32)cc1: 100%
